Experimental data collected from several papers.
Protocols differ between the studies behind these lines.
Chain of UniProt P08069 (whole entry, looked up): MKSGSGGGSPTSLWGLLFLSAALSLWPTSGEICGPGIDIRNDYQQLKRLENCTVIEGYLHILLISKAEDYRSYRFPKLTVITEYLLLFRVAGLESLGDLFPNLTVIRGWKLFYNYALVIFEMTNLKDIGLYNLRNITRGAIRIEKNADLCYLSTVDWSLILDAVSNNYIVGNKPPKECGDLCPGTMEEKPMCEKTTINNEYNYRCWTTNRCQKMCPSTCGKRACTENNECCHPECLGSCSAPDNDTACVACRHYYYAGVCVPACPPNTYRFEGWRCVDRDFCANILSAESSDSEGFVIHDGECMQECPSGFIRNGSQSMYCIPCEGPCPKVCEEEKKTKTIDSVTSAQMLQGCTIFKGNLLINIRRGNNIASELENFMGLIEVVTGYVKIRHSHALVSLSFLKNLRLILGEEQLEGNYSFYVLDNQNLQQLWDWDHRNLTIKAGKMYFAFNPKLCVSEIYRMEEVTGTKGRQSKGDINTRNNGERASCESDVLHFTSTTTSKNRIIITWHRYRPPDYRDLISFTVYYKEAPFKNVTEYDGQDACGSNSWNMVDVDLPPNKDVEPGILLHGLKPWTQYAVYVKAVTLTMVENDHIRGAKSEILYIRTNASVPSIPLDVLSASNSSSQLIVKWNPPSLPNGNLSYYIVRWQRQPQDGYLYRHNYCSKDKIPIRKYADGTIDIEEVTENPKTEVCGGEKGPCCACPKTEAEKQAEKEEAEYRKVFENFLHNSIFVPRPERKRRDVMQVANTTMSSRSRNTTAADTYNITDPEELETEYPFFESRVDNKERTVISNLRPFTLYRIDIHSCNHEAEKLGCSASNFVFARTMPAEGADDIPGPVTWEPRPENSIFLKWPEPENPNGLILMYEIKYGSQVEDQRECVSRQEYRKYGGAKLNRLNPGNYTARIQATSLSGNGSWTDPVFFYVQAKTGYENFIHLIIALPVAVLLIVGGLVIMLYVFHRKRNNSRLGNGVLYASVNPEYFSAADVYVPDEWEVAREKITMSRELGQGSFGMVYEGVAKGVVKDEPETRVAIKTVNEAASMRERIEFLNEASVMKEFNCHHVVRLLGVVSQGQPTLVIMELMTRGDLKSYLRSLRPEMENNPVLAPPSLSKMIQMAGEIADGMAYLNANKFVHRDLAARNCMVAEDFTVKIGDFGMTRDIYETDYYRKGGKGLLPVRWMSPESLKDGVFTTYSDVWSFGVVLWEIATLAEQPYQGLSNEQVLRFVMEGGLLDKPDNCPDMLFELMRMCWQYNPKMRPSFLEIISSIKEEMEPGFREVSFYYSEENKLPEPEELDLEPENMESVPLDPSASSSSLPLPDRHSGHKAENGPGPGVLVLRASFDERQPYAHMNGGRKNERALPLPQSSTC
Chain of UniProt O60331 (whole entry, looked up): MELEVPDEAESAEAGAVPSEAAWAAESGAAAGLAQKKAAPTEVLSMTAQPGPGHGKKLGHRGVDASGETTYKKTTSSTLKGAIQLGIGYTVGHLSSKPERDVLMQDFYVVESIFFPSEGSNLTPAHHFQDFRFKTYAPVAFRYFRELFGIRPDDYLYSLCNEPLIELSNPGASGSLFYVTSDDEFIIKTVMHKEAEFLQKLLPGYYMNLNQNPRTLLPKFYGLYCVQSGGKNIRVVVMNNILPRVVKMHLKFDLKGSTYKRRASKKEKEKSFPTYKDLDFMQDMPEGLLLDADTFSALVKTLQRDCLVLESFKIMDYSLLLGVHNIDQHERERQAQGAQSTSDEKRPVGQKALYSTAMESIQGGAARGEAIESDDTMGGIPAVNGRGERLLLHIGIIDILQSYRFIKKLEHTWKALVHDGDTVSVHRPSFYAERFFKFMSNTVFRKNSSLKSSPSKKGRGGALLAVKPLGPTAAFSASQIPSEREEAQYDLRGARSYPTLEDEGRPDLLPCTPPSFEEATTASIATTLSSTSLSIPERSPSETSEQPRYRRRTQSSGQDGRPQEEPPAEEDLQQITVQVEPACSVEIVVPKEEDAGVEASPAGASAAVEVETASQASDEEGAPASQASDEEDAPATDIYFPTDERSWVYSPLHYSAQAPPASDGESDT

Structure (SMILES) | target or system | test | setting | measurement | value
Cc1cc(=O)oc2ccc(-c3cc(-c4ccc(Br)cc4)nc(N)n3)c(O)c12 | KB | cell growth or viability, MTT | 32 µg/mL, 72 h | inhibition | 13%
CCC(=CCc1c(O)cc2c(c1O)C(=O)CC(c1ccc(O)cc1)O2)CC (stereo in doubt) | HeLa | cell growth or viability, MTT | 25 µM, 48 h | inhibition | 71.8%
COc1cc(-c2cncc3c2CN(C)Cc2cc(N4CCNCC4)ccc2-3)cc(OC)c1OC | Phosphatidylinositol 4-phosphate 5-kinase type-1 gamma (PIP5K1C, Homo sapiens, UniProt O60331) | enzyme activity, inhibitor | 1 µM | remaining activity | 100%
CCC(=CCc1c(O)cc2c(c1O)C(=O)C[C@H](c1ccccc1O)O2)CC | HeLa | cell growth or viability, MTT | 1.875 µM, 48 h | inhibition | -1.14%
C[C@@H]1CC[C@@H]([C@](O)(CNCc2ccccc2)COCc2ccccc2)[C@H](OCc2ccccc2)C1 | HeLa | cell growth or viability, MTT | 10 µM, 72 h | inhibition | 99.1%
CCN(Cc1ccccc1F)c1ccc(CO)c(Cl)c1 | RBE | cell growth or viability, ATP luminescence | 46 µM, 72 h | inhibition | 61%
Cc1ccc(-c2cc(-c3ccc4oc(=O)cc(C)c4c3O)nc(N)n2)cc1 | KB | cell growth or viability, MTT | 32 µg/mL, 72 h | inhibition | 0%
CNc1ncc2c(/C=C/C(=O)N3CCC(OC)CC3)nn(Cc3cccc(C(F)(F)F)c3)c2n1 | Insulin-like growth factor 1 receptor (IGF1R, Homo sapiens, UniProt P08069) | enzyme activity, inhibitor, radiometric | 1 µM | remaining activity | 94%
C[C@@H]1CC[C@@H]([C@@](O)(CNCc2cccc3ccccc23)COCc2ccccc2)[C@H](OCc2ccccc2)C1 | HeLa | cell growth or viability, MTT | 10 µM, 72 h | inhibition | 81.4%
CCN(Cc1cccc(F)c1)c1ccc(CO)c(Cl)c1 | RBE | cell growth or viability, ATP luminescence | 46 µM, 72 h | inhibition | 54%
COc1ccc(CNC[C@](O)(COCc2ccc(OC)cc2)[C@@H]2CC[C@@H](C)C[C@H]2OCc2ccc(OC)cc2)cc1 | HeLa | cell growth or viability, MTT | 30 µM, 72 h | inhibition | 97.6%
ONCc1ccc(-c2nn(Cc3ccccc3)c3ccccc23)o1 | RBE | cell growth or viability, ATP luminescence | 46 µM, 72 h | inhibition | 52%
C[C@@H]1CC[C@@H]([C@@](O)(CNCc2ccccc2)COCc2ccc(F)cc2)[C@H](OCc2ccc(F)cc2)C1 | HeLa | cell growth or viability, MTT | 30 µM, 72 h | inhibition | 96.4%
OCc1ccc(-c2nn(Cc3ccccc3)c3ccc(F)cc23)o1 | RBE | cell growth or viability, ATP luminescence | 46 µM, 72 h | inhibition | 72%

Repeated from above:
Structure (SMILES) | target or system | test | setting | measurement | value
CCN(Cc1ccccc1F)c1ccc(CO)c(Cl)c1 | RBE | cell growth or viability, ATP luminescence | 46 µM, 72 h | inhibition | 61%
Cc1ccc(-c2cc(-c3ccc4oc(=O)cc(C)c4c3O)nc(N)n2)cc1 | KB | cell growth or viability, MTT | 32 µg/mL, 72 h | inhibition | 0%
